Measurements pooled from the literature.
Lines come from different studies, so protocols differ.
Cell line: NCI-H226

`O=C(Nc1nnc2c1c(-c1ccc(Cl)cc1)nc1sc(=Cc3ccco3)c(=O)n12)c1ccccc1` (mixture of isomers) has a cell growth of 23.8% (SRB; 10 µM, NCI60 single-dose screen; reference: untreated).
The IC50 of `CC(C)(C)c1cnc(CSc2cnc(NC(=O)C3CCN(C(=O)CCCCCCN4Cc5cc6c(cc5C4)C(=O)N(C4CCC(=O)NC4=O)C6=O)CC3)s2)o1` (centres unmarked) is reported as 93.6 nM (cell growth or viability, MTT).
The growth percent of `CN(C)CCN1CCN(c2ccc3nc(-c4ccc5nc(-c6ccc(C(F)(F)F)cc6)[nH]c5c4)[nH]c3c2)CC1` is reported as 64.2% (cell growth, NCI-60 SRB; 10 µM).
The inhibition of `CCCCCCCCCCCCCCCCCCOc1ccccc1CCOP(=O)([O-])OCC[N+](C)(C)C` is reported as 10.9% (cell growth or viability, SRB; 10 µM).
For `C1=[N+]2CCCC[N+]3=Cc4ccc5[n]4[Au-]23[n]2c1ccc2-c1nc2ccccc2nc1-5.F[P-](F)(F)(F)(F)F`, the TGI was 4.29 -log M (NCI60 five-dose screen).
With `O=C(CCl)c1ccccc1Nc1cccc(C(F)(F)F)c1` the GI50 was 5090 nM (cell growth or viability, CCK-8; 72 h).
With `CNS(=O)(=O)Nc1nccc(Cc2c(C)c3ccc(Oc4ncccc4F)cc3oc2=O)c1F` the IC50 was greater than 1000 nM (cell viability; 7 days).
The inhibition of `Cc1ccc(C(=O)/C=C/c2ccccc2)s1` is reported as 6.2% (cell growth or viability, SRB; 10 µM).

For quick reference, copied from above:
For `C1=[N+]2CCCC[N+]3=Cc4ccc5[n]4[Au-]23[n]2c1ccc2-c1nc2ccccc2nc1-5.F[P-](F)(F)(F)(F)F`, the TGI was 4.29 -log M (NCI60 five-dose screen).
